Earlier results that unrelated publications cite.
Compare with care: the assays were run in different laboratories. ± gives the spread as reported. Converted amounts (≈) assume the structure as drawn.
Chain of UniProt Q9NY57 (whole entry, looked up): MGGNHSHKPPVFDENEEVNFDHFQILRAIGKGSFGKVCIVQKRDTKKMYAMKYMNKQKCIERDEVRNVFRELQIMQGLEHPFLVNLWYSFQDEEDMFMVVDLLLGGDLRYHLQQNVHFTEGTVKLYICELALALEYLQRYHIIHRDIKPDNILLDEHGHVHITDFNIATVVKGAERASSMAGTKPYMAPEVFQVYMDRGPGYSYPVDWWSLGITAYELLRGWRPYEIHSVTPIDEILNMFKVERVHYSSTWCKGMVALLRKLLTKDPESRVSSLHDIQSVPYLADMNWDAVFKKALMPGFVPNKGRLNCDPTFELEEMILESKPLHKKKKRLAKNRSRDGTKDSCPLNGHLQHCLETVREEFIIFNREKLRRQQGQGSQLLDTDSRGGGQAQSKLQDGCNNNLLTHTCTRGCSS

For Nc1cc(C(F)(F)F)c(-c2nc(N3CCOCC3)nc(N3CCOCC3)n2)cn1, the remaining activity was 76% (Serine/threonine-protein kinase 32B (STK32B, Homo sapiens, UniProt Q9NY57); enzyme activity; 10 µM; baseline: untreated).
C[C@@H](Oc1cc(-c2cnn(C3CCNCC3)c2)cnc1N)c1c(Cl)ccc(F)c1Cl has an AUCtau of 6990 ng·h/mL (human; 280 mg/m2 twice daily, steady state, mean).
Nc1ccn([C@@H]2CS[C@H](CO)O2)c(=O)n1 gave an oral bioavailability of 86% (human).
CC#CCn1c(N2CCC[C@@H](N)C2)nc2c1c(=O)n(Cc1nc(C)c3ccccc3n1)c(=O)n2C gave a half-life of 110 to 130 h.
C#C[C@]1(O)CC[C@H]2[C@@H]3CCc4cc(O)ccc4[C@H]3CC[C@@]21C: “AUC(0-24 h), geometric mean” 0.916 ng·h/mL (human, fed; 0.035 mg, multiple doses).
Cc1nsc(-c2nnc3n2CCN(C(=O)c2ccc(F)cc2)[C@@H]3C)n1 gave a Cmax of 527 ng/mL (human; oral, 45 mg, single dose, formulation).
The AUC(0-inf) of CNCc1cc(-c2ccccc2F)n(S(=O)(=O)c2cccnc2)c1 is reported as 174 ng·h/mL (human; 20 mg, single dose).
For Nc1ccn([C@@H]2CS[C@H](CO)O2)c(=O)n1, the free Cmax was 19500 nM (human).
For Cc1nc(-c2ccc(OCC(C)C)c(C#N)c2)sc1C(=O)O, the Cmax was 16800 nM (plasma; concentration not given, total, steady state).
Under “adverse event incidence”, CN(C)C(=O)c1cc2cnc(Nc3ccc(N4CCNCC4)cn3)nc2n1C1CCCC1 is recorded as 42.1% (measured: neutropenia; advanced solid tumour or lymphoma patients; dose not given, continuous dosing; baseline: patients).
With C[Si]1(C)O[Si](C)(C)O[Si](C)(C)O[Si](C)(C)O[Si](C)(C)O1 the log KAW was 3.13 (25 °C).
With C[C@@H]1CN(c2c(F)c(N)c3c(=O)c(C(=O)O)cn(C4CC4)c3c2F)C[C@H](C)N1 the free Cmax was 4400 nM (human).
For Cn1c(Cn2ccc(C(F)(F)F)c(Oc3cc(Cl)cc(C#N)c3)c2=O)n[nH]c1=O, “upper respiratory tract infection incidence” read 9.4% (human; up to 48 weeks, trial; baseline: subjects).
Cc1cn([C@H]2C[C@H](N=[N+]=[N-])[C@@H](CO)O2)c(=O)[nH]c1=O gave a t1/2 of 2.02 h (plasma).
CCC(C)n1ncn(-c2ccc(N3CCN(c4ccc(OCC5COC(Cn6cncn6)(c6ccc(Cl)cc6Cl)O5)cc4)CC3)cc2)c1=O (stereo not shown) — result for “unbound fraction in microsomes”: 0.16 (liver microsomes).
With CC(C)(CO)c1cc2cc(NC(=O)C3(c4ccc5c(c4)OC(F)(F)O5)CC3)c(F)cc2n1C[C@@H](O)CO the elimination half-life was 25.1 h (non-pregnant cystic fibrosis patients).
With N#C[C@@]1(c2ccc3c(N)ncnn23)O[C@H](CO)[C@@H](O)[C@H]1O the plasma concentration was 1.67 ng/mL (dog, plasma; intravenous, 2 mg/kg, 48 h, solution).
For COc1cc2c(Oc3ccc4[nH]c(C)cc4c3F)ccnc2cc1OCC1(N)CC1, the Tmax was 7.3 ± 3.3 h (human; 12 mg single dose).
N=C(N)c1ncn([C@@H]2O[C@H](CO)[C@@H](O)[C@H]2O)n1 has an oral bioavailability of 66% (human).
The oral bioavailability of CCN1CCN(C(=O)c2ccc(-n3nc(-c4cccnc4)c4c3-c3sc(NC(C)=O)nc3CC4)cc2)CC1 is reported as under 5% (mouse).
For NC(=O)c1cccnc1, “tolerable upper intake level” read 12.5 mg/kg bw/day (adults).
CC[C@H]1OC(=O)[C@H](C)[C@@H](O[C@H]2C[C@@](C)(OC)[C@@H](O)[C@H](C)O2)[C@H](C)[C@@H](O[C@@H]2O[C@H](C)C[C@H](N(C)C)[C@H]2O)[C@](C)(OC)C[C@@H](C)C(=O)[C@H](C)[C@@H](O)[C@]1(C)O has a free Cmax of 1730 nM (human).
CC[C@@H]1C(=O)OC[C@@H]1Cc1cncn1C.Cl gave a free Cmax of 112 nM (plasma).
The Cmax of CNC(=O)c1ccccc1Sc1ccc2c(/C=C/c3ccccn3)n[nH]c2c1 is reported as 160 nM (plasma; concentration not given, total, steady state).
The MIC of CNC(C)C1CCC(N)C(OC2C(N)CC(N)C(OC3OCC(C)(O)C(NC)C3O)C2O)O1 (stereo not shown) is reported as over 8 µg/mL (Klebsiella pneumoniae; clinical isolate RKI-No_80/15).
Cc1cc(-c2nccc3c2ccn3CC(=O)Nc2ccc(-c3cnccn3)cn2)ccn1: “AUC(0-24 h), total” 4.7 µM·h (dog; 10 mg/kg/day, 1 month, repeat dosing).
For COc1cc(N2CCC(N3CCN(C)CC3)CC2)ccc1Nc1ncc(Cl)c(Nc2ccccc2P(C)(C)=O)n1, the AUC(0-inf) was 15600 ng·h/mL (healthy subjects; 180 mg, single dose alone, rifampin study).
For O=C(CCCCCCC(=O)Nc1ccccc1)NO, the solubility was under 1000 µg/mL (water).
For C[C@@H](Oc1ccc(S(C)(=O)=O)cc1C(=O)N1C[C@@H]2C[C@]2(c2cc(C(F)(F)F)on2)C1)C(F)(F)F, “Cmax increase with food” read 42% (human; oral, dose not given, tablet; baseline: fasted).
COc1cnc(-n2cnc(C)n2)c2c1c(C(=O)C(=O)N1CCN(C(=O)c3ccccc3)CC1)cn2COP(=O)(O)O — result for “urinary recovery of radioactivity”: about 44% (healthy human volunteers, urine; oral, 300 mg single dose; baseline: dose).
With NC(=O)N1CCC(CC(=O)N2CCC([C@H]3c4ncc(Br)cc4CCc4cc(Cl)cc(Br)c43)CC2)CC1 the solubility was under 1000 µg/mL (water).
For CC(C)NC(=O)COc1cccc(-c2nc(Nc3ccc4[nH]ncc4c3)c3ccccc3n2)c1, the tmax delay was 0.5 h (human; with food).
With CC(C)(Sc1cc(C(C)(C)C)c(O)c(C(C)(C)C)c1)Sc1cc(C(C)(C)C)c(O)c(C(C)(C)C)c1 the solubility was under 1000 µg/mL (water).
The crossover pressure of OC[C@H]1O[C@@H](c2ccc(Cl)c(Cc3ccc(O[C@H]4CCOC4)cc3)c2)[C@H](O)[C@@H](O)[C@@H]1O is reported as 140 to 160 bar (supercritical CO2).
Under “incidence of venous thromboembolism”, CCN1CCN(Cc2ccc(Nc3ncc(F)c(-c4cc(F)c5nc(C)n(C(C)C)c5c4)n3)nc2)CC1 is recorded as 5% (breast cancer patients; dose not given).
O=C1C(CC[S+]([O-])c2ccccc2)C(=O)N(c2ccccc2)N1c1ccccc1 (stereo not shown) gave a Cmax of 55900 nM (plasma; concentration not given, total, steady state).
For C[C@H]1COCCN1c1nc(-c2cnc(N)cc2C(F)F)nc(N2CCOCC2)n1, the GI50 was 347 nM (BXPC-3).
CC(C)[C@H](C(=O)Nc1ccc(C(=O)NO)cc1)c1ccccc1 has a Tmax of 0.13 h (CD2F1 mouse; oral, 50 mg/kg single dose).
With CCCN[C@H]1CCc2nc(N)sc2C1 the solubility was under 1000 µg/mL (water).
The unbound Cmax of CC(C)[C@H]1CC[C@H](C(=O)N[C@H](Cc2ccccc2)C(=O)O)CC1 is reported as 230 nM (plasma; concentration not given).
For CNC(=O)c1ccc(N2C(=S)N(c3ccc(C#N)c(C(F)(F)F)c3)C(=O)C2(C)C)cc1F, talazoparib exposure read “increased” (intestinal P-gp transport, inhibitor; human; concentration not given).
For CC1(C)S[C@@H]2[C@H](NC(=O)[C@H](N)c3ccccc3)C(=O)N2[C@H]1C(=O)O, the MIC was over 16 µg/mL (Klebsiella pneumoniae; clinical isolate RKI-No_80/15).
For Nc1ccn([C@@H]2O[C@H](CO)[C@@H](O)C2(F)F)c(=O)n1, “grade 1-4 neutropenia incidence” read 58% (metastatic pancreatic cancer patients; dose not given).
COc1ccc(Cl)cc1C(=O)NCCc1ccc(S(=O)(=O)NC(=O)NC2CCCCC2)cc1 gave a solubility of 4.45 µg/mL (≈ 9 µM) (FaSSIF; literature value).
For Cc1cc(-c2ncc(CC(=O)Nc3ccc(-c4cnccn4)cn3)cc2C)ccn1, “incidence of nausea and vomiting” read 25 to 30% (human, advanced cancer; dose not given, phase I trial; baseline: subjects).
For CNCC[C@@H](Oc1ccccc1C)c1ccccc1, the free Cmax was 55.7 nM (plasma; literature data).
The t_half of COc1cc(Cc2cnc(N)nc2N)cc(OC)c1OC is reported as 11.3 h (human).
For CCOc1c([C@H](C)n2nc(C)c3c(N)ncnc32)cc(Cl)c(F)c1[C@@H]1CNC(=O)C1, the AUC(0-inf) increase was 107% (human; oral, 10 mg once daily, together with: itraconazole; baseline: compound alone).
For c1ccc2ccccc2c1, the bioconcentration factor was 545 L/kg (fish; dose not given, experimental mean).
The log KOW of C[Si](C)(C)O[Si](C)(C)C is reported as 4.76 (1-octanol/water; 25 °C).
With CC[C@H](C)CCCCC(=O)N[C@@H](CCN)C(=O)N[C@H](C(=O)N[C@@H](CCN)C(=O)N[C@H]1CCNC(=O)[C@H]([C@@H](C)O)NC(=O)[C@H](CCN)NC(=O)[C@H](CCN)NC(=O)[C@H](CC(C)C)NC(=O)[C@@H](Cc2ccccc2)NC(=O)[C@H](CCN)NC1=O)[C@@H](C)O the total clearance was 1.96 ± 0.14 L/h (healthy Chinese subjects; 0.75 mg/kg single dose).
The solubility of Cc1c(C(=O)NN2CCCCC2)nn(-c2ccc(Cl)cc2Cl)c1-c1ccc(Cl)cc1 is reported as under 1000 µg/mL (water).
N#CCNC(=O)c1ccc(-c2ccnc(Nc3ccc(N4CCOCC4)cc3)n2)cc1 has an AUC(0-inf) increase of 97% (severe hepatic impairment; dose not given; baseline: matched healthy participants).
COCCc1ccc(OCC(O)CNC(C)C)cc1 (stereo not shown) gave a Vd of 300 to 350 L (human).
COCCc1ccc(OCC(O)CNC(C)C)cc1 (stereo not shown) has an AUC(0-24 h) of 1860 ng·h/mL (human fasted; 200 mg multiple doses, day 13, mean).
The diarrhoea incidence of CNC(=O)c1ccccc1Sc1ccc2c(/C=C/c3ccccn3)n[nH]c2c1 is reported as 54% (human; concentration not given, clinical).
With Cc1cn([C@H]2C[C@H](N=[N+]=[N-])[C@@H](CO)O2)c(=O)[nH]c1=O the oral bioavailability was 86% (human; 300 mg, tablet).
CC[C@@H]([C@H](C)O)n1ncn(-c2ccc(N3CCN(c4ccc(OC[C@@H]5CO[C@@](Cn6cncn6)(c6ccc(F)cc6F)C5)cc4)CC3)cc2)c1=O: “minimum effective plasma level” 0.7 µg/mL (plasma; prophylaxis).
For CN1CCC(COc2cnc(-c3cccc(Cn4nc(-c5cccc(C#N)c5)ccc4=O)c3)nc2)CC1, the solubility was 72.8 µg/mL (≈ 148 µM) (FaSSIF; literature value).
For Nc1cccc2c1C(=O)N(C1CCC(=O)NC1=O)C2=O (stereo not shown), “deep vein thrombosis incidence” read 1% (relapsed refractory multiple myeloma patients; dose not given, all grades).
Cc1cn([C@@H]2C[C@@H](O)[C@H](CO)O2)c(=O)[nH]c1=O has an oral bioavailability of 82% (mouse).
For CCN1CCN(Cc2ccc(Nc3ncc(F)c(-c4cc(F)c5nc(C)n(C(C)C)c5c4)n3)nc2)CC1, the Cmin was 133 ng/mL (human; 200 mg twice daily multiple dose, tablet).
With C#Cc1cccc(Nc2ncnc3cc(OCCOC)c(OCCOC)cc23)c1 the solubility was under 1000 µg/mL (water).
With CCCCc1oc2ccccc2c1C(=O)c1cc(I)c(OCCN(CC)CC)c(I)c1 the crossover pressure was 180 to 210 bar (supercritical CO2).
